Published values pooled from the literature.
Protocols differ between the studies behind these lines. “And” joins repeats or separate records; there may be more than shown. ± marks the error that the study gave.

Compound = CSCCNc1nc(SCCC(F)(F)F)nc2c1ncn2[C@@H]1O[C@H](COP(=O)(O)OP(=O)(O)C(Cl)(Cl)P(=O)(O)O)[C@@H](O)[C@H]1O; test = platelet aggregation, light transmittance aggregometry; system = human, platelet-rich plasma; setting = dose not given, 15 min, IPA above 80 %, together with: TRAP 15 µM; scale = baseline: patients; quantity = patients with IPA above threshold; value = 0%
Compound = Cc1n[nH]c2ccc(-c3cc(OC[C@@H](N)Cc4ccccc4)cnc3-c3ccoc3)cc12; test = kinase binding, competitor, MIB/MS competition, item: CTK1; system = Candida albicans cell lysate; setting = 100 nM; scale = baseline: DMSO; quantity = log2 fold change; value = -0.0626
Compound = OC(CCN1CCCCC1)(c1ccccc1)C1CC2C=CC1C2 (stereo not drawn); test = resting-state EEG; system = healthy elderly humans; setting = oral, 2 mg, eyes closed, LS mean; quantity = EEG Beta1-power Pz-O1; value = 4.6 µV²
Compound = N#Cc1ccc2c(c1)[C@H]1CCCN(C(=O)c3ccc4[nH]cnc4c3)[C@H]1C2; system = human, urine; setting = 360 mg, 336 h, day 14 over day -1; scale = baseline: placebo and baseline; quantity = total urinary corticosteroids; value = 143 % change
Compound = Cc1noc(C)c1-c1cc(C(O)(c2ccccn2)c2ccccn2)c2nc(C3CC3)[nH]c2c1; test = item: CCR2 expression; system = human, peripheral blood; setting = 2 mg, day 8, 1604 study; quantity = maximum inhibition; value = 16%
Compound = CC[C@H]1[C@@H](O)[C@@H]2[C@H](CC[C@]3(C)[C@@H]([C@H](C)CCC(=O)O)CC[C@@H]23)[C@@]2(C)CC[C@@H](O)C[C@@H]12; system = C57BL/6J mouse, AMLN diet NASH model; setting = dose not given, terminal; quantity = plasma cholesterol; value = 152 ± 9 mg/dL
Compound = O=C1O[C@H]([C@@H](O)CO)[C@H](O)[C@@H]1O; test = binding, MIDAS equilibrium dialysis LC-MS; system = A2AR-BRIL thermostabilized; setting = concentration not given; scale = baseline: no-protein control; quantity = log2 fold change; value = 0.0216
Compound = N#Cc1ccc2c(-c3ccncc3)c(-c3ccc(F)cc3)nn2c1; test = kinase binding, competitor, MIB/MS competition, item: TPK2; system = Candida albicans cell lysate; setting = 1 µM; scale = baseline: DMSO; quantity = log2 fold change; value = 0.0868
Compound = Cc1cnc(N2CC3(CCOCC3)C2)c(C(=O)Nc2ccc(C(=O)N3CCc4cc(C(=O)Nc5c(C)cccc5F)sc4-c4ccccc43)cc2)c1; test = item: LDH; system = human RSV infection, nasal wash; setting = dose not given, AUC, ITT-IS population; scale = baseline: placebo; quantity = inhibition; value = -0.3%
Compound = CC(=O)Oc1cc2c(s1)CCN(C(C(=O)C1CC1)c1ccccc1F)C2 (stereo not drawn); test = platelet aggregation, light transmission aggregometry; system = human patients, platelet-rich plasma; setting = dose not given, 3 h, together with: TRAP 5 µM; quantity = patients with IPA above 90%; value = 9.5%
Compound = N#C/C(=C\c1ccccc1)c1cnccn1; setting = pH 7.4; quantity = β-elimination rate constant; value = 0.096 min⁻¹
Compound = O=C(O)c1cc(Cl)ccc1S(=O)(=O)NCCCCN1C(=O)c2cccc3cccc(c23)C1=O; system = mouse small intestinal enteroids; setting = 1 µM, day 1, 24 h pretreatment, together with: 5 Gy irradiation; quantity = surviving enteroids; value = 83.7%
Compound = Cc1cn(-c2ccc3n(c2=O)CCN([C@@H](C)[C@@H]2CC[C@H](c4cc(F)c(Cl)cc4C(F)(F)F)O2)C3=O)cn1; test = item: amyloid beta 40; system = human, non-elderly, cerebrospinal fluid; setting = 360 mg once daily, 14 days, sampled 336 h; scale = baseline: placebo; quantity = change from baseline; value = -49.9%
Compound = Oc1ccc(Br)cc1C=NCCN1CCOCC1; test = superoxide scavenging; setting = 120 µM; quantity = inhibition; value = 20.4%
Compound = CC(C)NCC(O)c1ccc(O)c(O)c1 (stereo not drawn); system = ventricular cardiomyocytes, C57BL/6 mouse; setting = dose not given, 0.76 s; quantity = sarcomere length; value = 1.72 µm
Compound = COc1ncc(-c2nc3c(n2C(C)C)[C@H](c2ccc(Cl)cc2)N(c2cc(Cl)cn(C)c2=O)C3=O)c(OC)n1; test = International Working Group criteria; system = human acute myeloid leukemia patients; setting = oral, 350 to 400 mg, response TF, high-dose, other doses; quantity = best overall response; value = 58.3%
Compound = C=CCn1c(=O)c2cnc(Nc3ccc(N4CCN(C)CC4)cc3)nc2n1-c1ccc2c(n1)[C@@](O)(CC)CC2; system = MIA PaCa-2, BALB/c nude mice, xenograft; setting = oral, 80 mg/kg once daily, day 21; scale = baseline: vehicle; quantity = tumour volume difference; value = 502 ± 15.2 mm3
Compound = NC(=O)c1cnc2[nH]ccc2c1N[C@@H]1[C@@H]2CC3C[C@H]1C[C@@](O)(C3)C2; test = flow cytometry, item: CD4+ central memory T cells; system = Japanese healthy subjects, peripheral blood; setting = oral, 30 mg twice daily, day 4; quantity = change from baseline; value = -1.07%
Compound = N#Cc1ccc2c(c1)[C@H]1CCCN(C(=O)c3ccc4[nH]cnc4c3)[C@H]1C2; system = human clinical trial; setting = oral, 240 mg once daily, 28 d; quantity = fasting plasma insulin change; value = 10.5 pmol/L
Compound = CCCC(=O)SCCNC(=O)CCNC(=O)[C@H](O)C(C)(C)COP(=O)(O)OP(=O)(O)OC[C@H]1O[C@@H](n2cnc3c(N)ncnc32)[C@H](O)[C@@H]1OP(=O)(O)O; test = binding, MIDAS equilibrium dialysis LC-MS; system = A2AR-BRIL thermostabilized; setting = concentration not given; scale = baseline: no-protein control; quantity = log2 fold change; value = -0.328
Compound = CCc1c(C)nc(-c2ccc(Cl)s2)nc1Nc1ccc(CC(=O)O)cc1; system = C57BL/6J mouse, high-fat diet MASH model; setting = intraperitoneal, 0.3 mg/kg daily, 60% fat diet for 12 weeks, dosed final four weeks; scale = baseline: untreated; quantity = inguinal white adipose weight; value = no effect
Compound = Nc1nc2c(ncn2[C@@H]2O[C@H](COP(=O)(O)OP(=O)(O)O)[C@@H](O)[C@H]2O)c(=O)[nH]1; test = binding, MIDAS equilibrium dialysis LC-MS; system = A2AR-BRIL thermostabilized; setting = concentration not given; scale = baseline: no-protein control; quantity = log2 fold change; value = -0.922
Compound = O=C(O)CNC(=O)Cc1ccccc1; system = ventricular cardiomyocytes, C57BL/6 mouse; setting = dose not given, 0.808 s; quantity = sarcomere length; value = 1.68 µm
Compound = OC[C@H]1O[C@@H](n2cnc3c(O)nc(O)nc32)[C@H](O)[C@@H]1O; test = binding, MIDAS equilibrium dialysis LC-MS; system = A2AR-BRIL thermostabilized; setting = concentration not given; scale = baseline: no-protein control; quantity = log2 fold change; value = -0.296
Compound = COc1cc2cc(-c3ccc(CC(=O)Nc4cc(C(C)(C)C(F)(F)F)no4)cn3)cnc2cc1OC; test = RECIST v1.1; system = human other RET-altered solid tumours; setting = 75 mg, phase I; quantity = best overall response PD; value = 60%
Compound = O=Cc1cc(O)ccc1O; test = binding, MIDAS equilibrium dialysis LC-MS; system = A2AR-BRIL thermostabilized; setting = concentration not given; scale = baseline: no-protein control; quantity = log2 fold change; value = -0.0411
Compound = O=P(O)(O)C(Cl)(Cl)P(=O)(O)O; test = open field test; system = UT+/+ and UT-/- mice, SAH; setting = 23000 µg/mL; quantity = distance travelled; value = 23 m and 26 m and 21 m and 17 m and 29 m
Compound = C[C@@H](O)CCOC(=O)C[C@@H](C)O; test = item: Ala; system = human, plasma; setting = 60 min, log2-transformed values; quantity = metabolite level; value = 8.69 ± 0.25 µmol/L
Compound = c1ccc(-c2n[nH]cc2-c2ccnc3ccccc23)nc1; test = kinase binding, competitor, MIB/MS competition, item: FPK1; system = Candida albicans cell lysate; setting = 10 µM; scale = baseline: DMSO; quantity = log2 fold change; value = 1.72
Compound = C[C@H](Oc1ccc(Br)cc1-c1ccon1)C(=O)O; test = muscle velocity recovery cycle; system = human, tibialis anterior muscle; setting = 200 mg once daily, first response latency at 15 Hz, multiple ascending dose; quantity = difference from placebo; value = 1.04%
Compound = Cc1cc([C@H]2C[C@H]3[C@@H](CF)SC(N)=N[C@@]3(c3ccc(F)cc3F)CO2)on1; test = item: Aβx-40; system = Mus musculus wild-type, cerebrospinal fluid; setting = subcutaneous, 100 mg/kg, 9 h; quantity = Aβ40 level; value = 0.85 ng/mL
Compound = C[C@@H](NC(=O)N1C(=O)[C@H](Cc2ccnc(N)c2)[C@H]1C(=O)O)C1CCCCC1; system = human; setting = iv infusion, 0.6 mg/kg/h, 24 h, unit not given; scale = baseline: baseline; quantity = aPTT AUEC; value = 177
Compound = COc1cc(CC(=O)O)ccc1O; test = binding, MIDAS equilibrium dialysis LC-MS; system = A2AR-BRIL thermostabilized; setting = concentration not given; scale = baseline: no-protein control; quantity = log2 fold change; value = -0.764
Compound = N#CCC1CCN(c2nc(Nc3ccc(N4CCC(O)CC4)cc3)c3c(=O)[nH]ncc3n2)CC1; test = Olink multiplex; system = human, serum; setting = 40 mg, day 29, unit not given; scale = baseline: baseline; quantity = GIF level change; value = 1.32
Compound = Cc1coc([C@H]2C[C@H]3[C@@H](CF)SC(N)=N[C@@]3(c3ccc(F)cc3F)CO2)n1; test = item: Aβx-40; system = Mus musculus wild-type, cerebrospinal fluid; setting = subcutaneous, 80 mg/kg, 7 h; quantity = Aβ40 level; value = 1.11 ng/mL
Compound = CCO[C@H]1CCN(Cc2c(OC)cc(C)c3[nH]ccc23)[C@H](c2ccc(C(=O)O)cc2)C1; system = PNH patients, blood; setting = oral, 25 mg then 100 mg, week 4, mean percent change; scale = baseline: baseline; quantity = C3d-positive type III RBCs; value = -52.5%
Compound = O=C1O[C@H]([C@@H](O)CO)C(O)=C1O; test = FRAP; setting = 200 µM; quantity = ferric reducing power; value = 79.5%
Compound = NCCCC(=O)O; test = binding, MIDAS equilibrium dialysis LC-MS; system = A2AR-BRIL thermostabilized; setting = concentration not given; scale = baseline: no-protein control; quantity = log2 fold change; value = -0.257
Compound = COc1ccc(-c2cncc(N[C@@H](C)c3cccc(NC(=O)c4cncc(C)c4)c3)n2)cc1OC; test = item: rno-miR-93-5p; system = rat SU5416/hypoxia model, lung; setting = dose not given, unit not given; scale = baseline: SU5416/hypoxia vehicle; quantity = delta delta Ct; value = -0.578
Compound = O=C[C@H](O)[C@H]1OC(=O)[C@@H](O)[C@H]1O; test = binding, MIDAS equilibrium dialysis LC-MS; system = A2AR-BRIL thermostabilized; setting = concentration not given; scale = baseline: no-protein control; quantity = log2 fold change; value = -0.0965
Compound = Cc1cc([C@H]2C[C@H]3[C@@H](C)SC(N)=N[C@@]3(c3ccc(F)cc3F)CO2)on1; test = item: Aβx-40; system = Mus musculus wild-type, cerebrospinal fluid; setting = subcutaneous, 50 mg/kg, 3 h; quantity = Aβ40 level; value = 0.2 ng/mL
Compound = CC(C)[C@H](C(=O)Nc1ccc(C(=O)NO)cc1)c1ccccc1; test = volumetric MRI; system = human, left parieto-occipital meningioma; setting = dose not given, day 834; quantity = tumour volume; value = 0.0335 cm3
Compound = Cn1cc([C@H]2C[C@H]3CSC(N)=N[C@@]3(c3ccc(F)cc3F)CO2)cn1; test = item: Aβx-40; system = Mus musculus wild-type, cerebrospinal fluid; setting = subcutaneous, 3 mg/kg, 6 h; quantity = Aβ40 level; value = 1.75 ng/mL
Compound = CC1(C)CCC(CN2CCN(c3ccc(C(=O)NS(=O)(=O)c4ccc(NCC5CCOCC5)c([N+](=O)[O-])c4)c(Oc4cnc5[nH]ccc5c4)c3)CC2)=C(c2ccc(Cl)cc2)C1; test = cell killing; system = primary canine neoplastic B cells, dog 28; setting = 24 h; quantity = EC50; value = 2.3 µM
Compound = C[C@H]1C[C@H]2CSC(N)=N[C@@]2(c2nc(NC(=O)c3ccc(OC(F)F)cn3)cs2)CO1; test = item: Aβ1-40; system = healthy adults, plasma; setting = 40 mg single dose, 24 h post-dose; scale = baseline: placebo; quantity = percent change from baseline; value = -66.6%
Compound = CC1(C)OCCn2c1nc1c(N3CCOCC3)nc(-c3cnc(N)nc3)nc12; test = RNA sequencing, item: HALLMARK_INTERFERON_ALPHA_RESPONSE; system = MB002 tumour; setting = concentration not given; scale = baseline: vehicle, direction not given; quantity = GSEA enrichment score; value = 0.205
Compound = N#Cc1ccn2c(-c3ccncc3)c(-c3ccc(F)cc3)nc2c1; test = kinase binding, competitor, MIB/MS competition, item: CEK1; system = Candida albicans cell lysate; setting = 10 µM; scale = baseline: DMSO; quantity = log2 fold change; value = 0.506
Compound = CCCCCN1C[C@H](O)[C@@H](O)[C@H](O)[C@@H]1CO; test = RNA sequencing, item: Hallmark interferon gamma genes; system = Hexb-/- mouse, hippocampus; setting = 30 mg/kg/day; scale = direction not given; quantity = genomic disease score; value = 0.35

Excerpt of the above:
Compound = C[C@H](Oc1ccc(Br)cc1-c1ccon1)C(=O)O; test = muscle velocity recovery cycle; system = human, tibialis anterior muscle; setting = 200 mg once daily, first response latency at 15 Hz, multiple ascending dose; quantity = difference from placebo; value = 1.04%
Compound = N#Cc1ccc2c(-c3ccncc3)c(-c3ccc(F)cc3)nn2c1; test = kinase binding, competitor, MIB/MS competition, item: TPK2; system = Candida albicans cell lysate; setting = 1 µM; scale = baseline: DMSO; quantity = log2 fold change; value = 0.0868
Compound = O=C[C@H](O)[C@H]1OC(=O)[C@@H](O)[C@H]1O; test = binding, MIDAS equilibrium dialysis LC-MS; system = A2AR-BRIL thermostabilized; setting = concentration not given; scale = baseline: no-protein control; quantity = log2 fold change; value = -0.0965
Compound = CCCCCN1C[C@H](O)[C@@H](O)[C@H](O)[C@@H]1CO; test = RNA sequencing, item: Hallmark interferon gamma genes; system = Hexb-/- mouse, hippocampus; setting = 30 mg/kg/day; scale = direction not given; quantity = genomic disease score; value = 0.35
